{"data": "Measurements gathered from unrelated publications", "organism": "Escherichia coli", "note": "Protocols differ between the studies behind these lines. Numbers after ± are the reported error."}
{"Structure (SMILES)": "CCOC(=O)c1cnc(N/N=C/c2c(-c3ccc(OC)cc3)nc3ncccn23)s1", "test": "microbial growth, well diffusion", "test system": "ATCC25922", "conditions": "100 µg/mL", "inhibition zone [mm]": 15}
{"Structure (SMILES)": "Cc1cccc([N+](=O)[O-])c1NC(=O)CSc1nc2ccccc2c(=O)n1-c1ccc(S(N)(=O)=O)cc1", "test": "microbial growth, well diffusion", "test system": "ATCC25922", "conditions": "500 µg/mL, 24 h", "inhibition zone [mm]": 16}
{"Structure (SMILES)": "Cc1cc(O)c2c(c1)C(=O)c1cc3oc(=O)cc(-c4ccc(O)cc4)c3c(O)c1C2=O", "test": "microbial growth, disc diffusion", "test system": "MTCC739", "conditions": "100 µg/disc", "inhibition zone [mm]": 10}
{"Structure (SMILES)": "O=C1c2ccccc2C(=O)c2c1ccc1c2C(C(=O)NCc2ccccc2)C(=O)C1c1ccccc1 (centres unmarked)", "test": "microbial growth, disc diffusion", "test system": "MTCC739", "conditions": "100 µg/mL, 24 h", "inhibition zone [mm]": 8}
{"Structure (SMILES)": "CCOC(=O)c1cnc(N/N=C/c2c(-c3ccc(Cl)cc3)nc3ncccn23)s1", "test": "microbial growth, well diffusion", "test system": "ATCC25922", "conditions": "100 µg/mL", "inhibition zone [mm]": 13}
{"Structure (SMILES)": "O=C1c2ccccc2C(=O)c2c1ccc1c2C(C(=O)Nc2ccccc2)C(=O)C1c1ccccc1 (centres unmarked)", "test": "microbial growth, disc diffusion", "test system": "MTCC739", "conditions": "100 µg/mL, 24 h", "inhibition zone [mm]": 8}
{"Structure (SMILES)": "Cn1c(C23CC4CC(CC(C4)C2)C3)nn(CCN2CCCCC2)c1=S", "test": "microbial growth, disc diffusion", "test system": "IFO3301", "conditions": "200 µg/disc, 24 h", "inhibition zone [mm]": 14}
{"Structure (SMILES)": "Cc1cc(O)cc2c1C(=O)c1c(cc3oc(=O)cc(-c4ccc(Cl)cc4)c3c1O)C2=O", "test": "microbial growth, disc diffusion", "test system": "MTCC739", "conditions": "100 µg/disc", "inhibition zone [mm]": 16}
{"Structure (SMILES)": "O=C1c2ccccc2C(=O)c2c1ccc1c2C(C(=O)Nc2ccc(Cl)cc2)C(=O)C1c1ccccc1 (centres unmarked)", "test": "microbial growth, disc diffusion", "test system": "MTCC739", "conditions": "100 µg/mL, 24 h", "inhibition zone [mm]": 8}
{"Structure (SMILES)": "Cc1cc(O)c2c(c1)C(=O)c1cc3oc(=O)cc(C)c3c(O)c1C2=O", "test": "microbial growth, disc diffusion", "test system": "MTCC739", "conditions": "100 µg/disc", "inhibition zone [mm]": 8}
{"Structure (SMILES)": "COc1cc(NC(=O)CSc2nc3ccccc3c(=O)n2-c2ccc(S(N)(=O)=O)cc2)cc(OC)c1", "test": "microbial growth, well diffusion", "test system": "ATCC25922", "conditions": "500 µg/mL, 24 h", "inhibition zone [mm]": 16}
{"Structure (SMILES)": "COc1ccccc1N1CCN(Cn2nc(C34CC5CC(CC(C5)C3)C4)n(-c3ccccc3)c2=S)CC1", "test": "microbial growth, disc diffusion", "test system": "IFO3301", "conditions": "200 µg/disc, 24 h", "inhibition zone [mm]": 16}
{"Structure (SMILES)": "C=C1CC(OC(=O)C(C)(O)CCl)C2C(=C)C(=O)OC2C2C1CC(O)C2(O)CCl (centres unmarked)", "conditions": "concentration not given", "inhibition zone [mm]": "9 ± 1.3"}
{"Structure (SMILES)": "CCN(CC)CCn1nc(C23CC4CC(CC(C4)C2)C3)n(C)c1=S", "test": "microbial growth, disc diffusion", "test system": "IFO3301", "conditions": "200 µg/disc, 24 h", "inhibition zone [mm]": 12}
{"Structure (SMILES)": "COc1c2c(cc3oc(=O)cc(-c4ccc(O)cc4)c13)C(=O)c1cc(C)cc(O)c1C2=O", "test": "microbial growth, disc diffusion", "test system": "MTCC739", "conditions": "100 µg/disc", "inhibition zone [mm]": 12}
{"Structure (SMILES)": "S=c1n(CN2CCN(c3ccccn3)CC2)nc(C23CC4CC(CC(C4)C2)C3)n1-c1ccccc1", "test": "microbial growth, disc diffusion", "test system": "IFO3301", "conditions": "200 µg/disc, 24 h", "inhibition zone [mm]": 19}
{"Structure (SMILES)": "Cc1c2c(cc3oc(=O)cc(-c4ccc(Cl)cc4)c13)C(=O)c1cccc(O)c1C2=O", "test": "microbial growth, disc diffusion", "test system": "MTCC739", "conditions": "100 µg/disc", "inhibition zone [mm]": 8}
{"Structure (SMILES)": "CCOC(=O)c1sc(N/N=C/c2c(-c3ccc(C)cc3)nc3ncccn23)nc1C", "test": "microbial growth, well diffusion", "test system": "ATCC25922", "conditions": "100 µg/mL", "inhibition zone [mm]": 18}
{"Structure (SMILES)": "S=c1n(CN2CCN(c3ccccc3)CC2)nc(C23CC4CC(CC(C4)C2)C3)n1-c1ccccc1", "test": "microbial growth, disc diffusion", "test system": "IFO3301", "conditions": "200 µg/disc, 24 h", "inhibition zone [mm]": 12}
{"Structure (SMILES)": "COc1ccc(NC(=O)CSc2nc3ccccc3c(=O)n2-c2ccc(S(N)(=O)=O)cc2)cc1", "test": "microbial growth, well diffusion", "test system": "ATCC25922", "conditions": "500 µg/mL, 24 h", "inhibition zone [mm]": 13}
{"Structure (SMILES)": "COc1cc(OC)c2c(c1)C(=O)c1cc3oc(=O)cc(C)c3c(O)c1C2=O", "test": "microbial growth, disc diffusion", "test system": "MTCC739", "conditions": "100 µg/disc", "inhibition zone [mm]": 10}
{"Structure (SMILES)": "NS(=O)(=O)c1ccc(-n2c(SCC(=O)Nc3ccc([N+](=O)[O-])cc3[N+](=O)[O-])nc3ccccc3c2=O)cc1", "test": "microbial growth, well diffusion", "test system": "ATCC25922", "conditions": "500 µg/mL, 24 h", "inhibition zone [mm]": 15}
{"Structure (SMILES)": "Cc1cccc(NCC(=O)Nc2nc3ccccc3s2)c1", "test": "microbial growth, disc diffusion", "conditions": "100 µg/mL, 24 h", "inhibition zone [mm]": 0}
{"note": "For quick reference, copied from above:"}
{"Structure (SMILES)": "COc1ccccc1N1CCN(Cn2nc(C34CC5CC(CC(C5)C3)C4)n(-c3ccccc3)c2=S)CC1", "test": "microbial growth, disc diffusion", "test system": "IFO3301", "conditions": "200 µg/disc, 24 h", "inhibition zone [mm]": 16}
{"Structure (SMILES)": "COc1c2c(cc3oc(=O)cc(-c4ccc(O)cc4)c13)C(=O)c1cc(C)cc(O)c1C2=O", "test": "microbial growth, disc diffusion", "test system": "MTCC739", "conditions": "100 µg/disc", "inhibition zone [mm]": 12}
{"Structure (SMILES)": "Cc1cc(O)c2c(c1)C(=O)c1cc3oc(=O)cc(-c4ccc(O)cc4)c3c(O)c1C2=O", "test": "microbial growth, disc diffusion", "test system": "MTCC739", "conditions": "100 µg/disc", "inhibition zone [mm]": 10}
